Measurements gathered from unrelated publications.
A part holds a random share of what one study measured.

Block 1
Target: Fragile X messenger ribonucleoprotein 1, C-terminal low-complexity region (Fmr1, Mus musculus, UniProt P35922)
Method: RNA Bind-n-Seq
Form: RNA
Medium: in vitro
Tested at: 200 nM
Notes: whole 134-nt RNA, ends assumed
With: 150 mM LiCl
Reference: input library
Direction: higher = stronger binding
Each molecule: 7-deaza-guanosine replaces G
Constant ends, left off below: GGGAGUUCUACAGUCCGACGAUC … UGGAAUUCUCGGGUGUCAAGG
| Sequence | log2 enrichment |
| --- | --- |
| CACAGACAACACGCACCCACACAGACACAGAGGGAAGGGGUUGGGAUGGGGUCAGGGUGCACAGCAGGGCGGGGUAGGACCCCAGCCCCU | -0.261 |
| CAAGUCCUGUGCUACACAUCGUAUGUACCGAAUCGGAAAGGAAAAAGGUUUUUGGAAAGUAUUAUGUUACGCCGUUCGGAUCUGCACUUC | -1.9 |
| UCCUGUGCUACACAUCGUAUGUACCGAAUCGGGGUUUUUGGGGUUUUUGGGGUUUUUGGGAAAGUAUUAUGUUACGCCGUUCGGAUCUGC | 0.46 |
| UCCUGUGCUACACAUCGUAUGUACCGAAUCGGUUUUUUUGGAAAAAAAGGUUUUUUUGGAAAGUAUUAUGUUACGCCGUUCGGAUCUGCA | -2.76 |
| AAGUCCUGUGCUACACAUCGUAUGUACCGAAUCGGGAAAAAGGGUGGGAAAAAGGGAAAGUAUUAUGUUACGCCGUUCGGAUCUGCACUU | -1.13 |
| CAAGUCCUGUGCUACACAUCGUAUGUACCGAAUCGGGAAAGGGUUUGGGAAAGGGAAAGUAUUAUGUUACGCCGUUCGGAUCUGCACUUC | -1.19 |
| CCUCAAGUCCUGUGCUACACAUCGUAUGUACCGAAUCGGUUUUUGGUGGUGGAAAGUAUUAUGUUACGCCGUUCGGAUCUGCACUUCCAG | -0.205 |
| CCUGUGCUACACAUCGUAUGUACCGAAUCGGGGAAAAAAAGGGGAAAAAGGGGAAAGGGGAAAGUAUUAUGUUACGCCGUUCGGAUCUGC | 0.991 |
| AAGUCCUGUGCUACACAUCGUAUGUACCGAAUCGGUUUUGGGUUUUGGUUUUGGGGAAAGUAUUAUGUUACGCCGUUCGGAUCUGCACUU | -1.54 |
| CCUCAAGUCCUGUGCUACACAUCGUAUGUACCGAAUCGGGAAGGAAGGGAAGGAAAGUAUUAUGUUACGCCGUUCGGAUCUGCACUUCCA | -1.45 |
| CUCAAGUCCUGUGCUACACAUCGUAUGUACCGAAUCGGGAAAGGGUGGGUGGGAAAGUAUUAUGUUACGCCGUUCGGAUCUGCACUUCCA | -0.391 |

Block 2
Target: Sal-like protein 4, full length isoform A (SALL4, Homo sapiens, UniProt Q9UJQ4, residues 1-1053)
UniProt Q9UJQ4, sequence (whole entry, looked up): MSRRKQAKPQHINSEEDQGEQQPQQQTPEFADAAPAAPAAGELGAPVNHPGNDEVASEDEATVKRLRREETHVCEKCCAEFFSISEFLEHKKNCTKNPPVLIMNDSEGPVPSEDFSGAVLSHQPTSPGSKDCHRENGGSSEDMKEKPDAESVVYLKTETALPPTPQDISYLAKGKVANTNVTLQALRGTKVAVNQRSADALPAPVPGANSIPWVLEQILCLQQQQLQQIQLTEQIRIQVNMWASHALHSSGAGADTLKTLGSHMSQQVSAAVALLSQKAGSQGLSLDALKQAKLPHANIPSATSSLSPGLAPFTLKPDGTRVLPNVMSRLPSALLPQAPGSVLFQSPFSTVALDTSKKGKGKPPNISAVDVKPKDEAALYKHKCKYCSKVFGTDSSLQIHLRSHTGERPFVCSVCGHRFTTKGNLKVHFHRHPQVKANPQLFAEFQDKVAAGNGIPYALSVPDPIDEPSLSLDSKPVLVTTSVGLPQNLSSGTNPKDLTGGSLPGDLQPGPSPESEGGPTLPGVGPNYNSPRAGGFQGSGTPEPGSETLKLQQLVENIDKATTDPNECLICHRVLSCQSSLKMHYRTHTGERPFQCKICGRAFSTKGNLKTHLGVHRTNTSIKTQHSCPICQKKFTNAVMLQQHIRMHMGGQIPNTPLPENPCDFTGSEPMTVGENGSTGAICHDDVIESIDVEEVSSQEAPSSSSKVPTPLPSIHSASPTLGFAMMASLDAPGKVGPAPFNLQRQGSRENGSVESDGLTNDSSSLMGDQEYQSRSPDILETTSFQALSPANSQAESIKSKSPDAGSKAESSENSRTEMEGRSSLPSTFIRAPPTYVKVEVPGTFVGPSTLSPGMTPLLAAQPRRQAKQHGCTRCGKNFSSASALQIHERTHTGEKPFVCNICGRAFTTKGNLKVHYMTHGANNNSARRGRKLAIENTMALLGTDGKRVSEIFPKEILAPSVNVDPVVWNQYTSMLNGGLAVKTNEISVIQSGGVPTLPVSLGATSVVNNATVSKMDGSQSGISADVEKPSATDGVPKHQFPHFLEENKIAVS
Method: universal PBM
Form: double-stranded DNA, one strand shown
Medium: in vitro
Tested at: 600 nM
Notes: 8-mer, flanks averaged, mean of replicates
Direction: higher = stronger binding
| Sequence | E-score |
| --- | --- |
| AAATTACC | 0.319 |
| GATTCTAA | 0.139 |
| ATTGTCCC | -0.0664 |
| AAGTGCGC | -0.195 |
| CGCGCAGC | -0.326 |
| AATAGACT | 0.234 |
| CGGCTCGC | -0.146 |
| CCGTTACC | -0.079 |
| CGCCTAGA | -0.0859 |
| CTGAGAGC | -0.212 |
| GGAGTGCA | -0.128 |
| ACTGAGTG | -0.0575 |
| GCGAGTTA | -0.00359 |
| CGCAAAGC | -0.0961 |
| CATACTAC | 0.139 |
| CGAGATGA | -0.108 |
| AGATTACA | 0.178 |
| CTCTAAGC | 0.0735 |
| GTATGCAC | -0.011 |
| CACCTTAA | 0.125 |
| CAGCGTTC | -0.157 |
| CTTGATAA | 0.262 |
| AACCACCA | -0.0355 |
| CTCAGACC | -0.135 |
| CCAGCCAA | -0.15 |

Block 3
Target: RING finger protein unkempt homolog, zinc fingers 1-6, GST-SBP tag (UNK, Homo sapiens, UniProt Q9C0B0, residues 30-357)
UniProt Q9C0B0, sequence (30-357, looked up): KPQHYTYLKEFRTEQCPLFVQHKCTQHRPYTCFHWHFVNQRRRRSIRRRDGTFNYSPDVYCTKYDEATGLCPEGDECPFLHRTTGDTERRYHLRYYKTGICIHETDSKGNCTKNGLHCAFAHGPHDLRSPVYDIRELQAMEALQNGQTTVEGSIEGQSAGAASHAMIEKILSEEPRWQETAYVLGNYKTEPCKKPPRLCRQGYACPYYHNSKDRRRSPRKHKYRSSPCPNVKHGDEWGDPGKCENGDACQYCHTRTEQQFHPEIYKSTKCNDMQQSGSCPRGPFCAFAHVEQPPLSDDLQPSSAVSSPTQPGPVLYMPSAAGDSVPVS
Method: RNA Bind-n-Seq
Form: RNA
Medium: in vitro
Tested at: not given
Notes: RNA with constant flanks, human and mouse sites, ends assumed
Reference: input RNA pool
Direction: higher = stronger binding
Constant ends, left off below: GGGAGUUCUACAGUCCGACGAUC … CAACAGAGGAUUGAGCAUCA
| Sequence | bound/input enrichment [ratio] |
| --- | --- |
| GUUAGCUGGGGUAAAAAGGUCCAGCCUAUAGACUCCAUAUUAGCAGACUGGAAUGAAGAUAUAGAAGCAUUUGAAAUGAUGGAGAAGGAUGAGCUAUGACUUGCUAAACAAUCUGUUGGU | 2.65 |
| GAGACCCUGCGCAUGCACGCUGGCUCCCAGCUCACUAGGCUGUCACCCAGUCCUGUCAUUCUUAGACCAUUCAUCUGUCUGUCCAUUUUGCACGAAGAUUCCCCUCUCCUCCCCAACCCU | 1.1 |
| AACAAUGAAACCAACAACAAACAUUUUUAAAAUUAAAAUGGAUAAUUUGUAAAUAGUUUUUAGCUUUUAAAAUUUAAAGUGUUUUUGAGUGUGAAAAGUUGAGUAAAACUAUUUGCAACU | 2.02 |
| AAAAUCCUCCCUCAAAGGAUUCGGGAGCUGGUACCCGAGUCCCAGGCUUACAUGGACCUCCUAGCAUUUGAGAGGAAACUGGAUCAAACCAUCAUGCGGAAGCGGGUGGACAUCCAGGAG | 0.184 |
| AAGGAUUGUAAAUCCUACAGUGUGGGAGUAGCAUACAAAACGUUGGGGAAAUUUGACCAAUUGGGAAAGACAAACACUAGUUGGUGUAUCCAUGUCAACAACUGGCUACAAAACACAUUU | 0.12 |
| CGGGUCGACACAAUAUUGGAGUUUUCGCAGAACAUGAACACGAAAUACUAUGGACUACAGAUUUUGGAAAAUGUGAUCAAAACAAGGUGGAAGAUCCUUCCAAGGAACCAGUGUGAAGGA | 0.252 |
| AAAAUGAAUUUAUGUAUAUAUCAGAUGUCCAAUACUGUAAUUAAUUUAUUAAAGACUGGCUCUCCAGUUUUAAAAUGGUUGUGUAAAGUUAUGUACUUCAGCAAGAAAAAAAUAAUAAUA | 0.826 |
| GAACUCACAUCUCUAAAAGAAGCUACUCCUUCCCCAAUCAGUGAGUCUCAUAGUGAUGAGACCAUUCCCAGUGAUAGUGGAAUUGGAACAGAUAAUAACAGCACAUCAGACAGGGCAGAG | 0.312 |
| AAAAAACCCCGAUUUUAGAUAUUUAGGCUUUCAUUCUAGUUUGGUUUUGUCUUUUCUUGUUUAGAUACCACUUAAAUUCUUGGCAUUUUAGUAAGCAAGCUACCUUUUUAUGGAUGUUAG | 15 |
| AAAGGCGCAAAGCUCAUCCUGAUCUUUCUGUUCCUAGGAGCCGUUCAGUCCAAUGCAUUGAUAGUUAAUUUGACAGAUUCAAAGGGUACUUGCCUUUAUGCAGAAUGGGAGAUGAAUUUC | 0.182 |
| AGUUCAGAGUCCGGAGCUGCGGUGGUGGCGGCGAAGGCGAGAGUCAUGGCUGGACAAGCUUUUAGGAAGUUUCUUCCGCUCUUUGACAGAGUAUUGGUUGAAAGGAGUGCUGCCGAAACU | 0.19 |

Block 4
Target: Histone acetyltransferase KAT6A, winged helix 1, GST fusion (KAT6A, Homo sapiens, UniProt Q92794, residues 1-85)
Method: protein binding microarray
Form: double-stranded DNA, one strand shown
Medium: in vitro
Tested at: not given
Notes: 8-mer, flanks averaged, mean of 2 arrays, mostly near background
Reference: not given
Direction: higher = stronger binding
Target sequence (chain): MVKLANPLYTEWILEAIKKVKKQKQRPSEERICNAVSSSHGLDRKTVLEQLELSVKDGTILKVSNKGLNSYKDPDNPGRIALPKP
| Sequence | E-score |
| --- | --- |
| TGCTCCAA | -0.313 |
| AGCCGTCG | 0.443 |
| GAAGTACA | -0.116 |
| AGATTTAG | -0.245 |
| AAAAGCTG | 0.0142 |
| CTCGACAC | 0.045 |
| ACCTACAA | -0.124 |
| AGCTAACC | -0.131 |
| ACGAGCAA | -0.18 |
| ACGGGTCT | 0.242 |
| GAATCTCC | -0.0548 |
| CCTGCCAC | -0.1 |
| CCACGACA | -0.049 |
| AGCTTCCT | -0.064 |
| ACTAACAC | -0.0278 |
| CAGACCAG | -0.0356 |
| ACTAATTC | 0.00475 |
| TATCCTCA | -0.256 |
| CTTGCGAC | -0.0498 |
| ATATACAC | -0.0789 |
| AAGGACGT | -0.195 |
| ATCTGCGG | 0.223 |
| AAACACTT | -0.175 |
| CAACCTAG | -0.206 |
| TAACTCCA | -0.0975 |

Block 5
Target: RNA binding protein fox-1 homolog 2, RRM domain, GST-SBP tag (RBFOX2, Homo sapiens, UniProt O43251-10, residues 100-194)
Method: RNA Bind-n-Seq
Form: RNA
Medium: in vitro
Tested at: 365 nM
Notes: natural RNA segment, single round, ends assumed
Reference: no-protein control
Direction: higher = stronger binding
Constant ends, left off below: GGGAGUUCUACAGUCCGACGAUC … UGGAAUUCUCGGGUGCCAA
Construct (chain): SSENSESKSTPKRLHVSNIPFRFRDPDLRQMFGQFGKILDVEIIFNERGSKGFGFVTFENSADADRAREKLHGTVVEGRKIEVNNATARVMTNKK
| Sequence | RBNS enrichment (R) |
| --- | --- |
| CCCUGGUGGCCGCUCCAACAUCACCAGCCUCGGUUGAACGUGGAUGCGCGGAGGAGCUAGCCUGAAGGAUUCUGGGAAUCAUGUCCAUCCCUUUUCCUGUCAGUGUUUUU | 0.368 |
| AGCAGGGCUGUGUCCCAGAUGGGCCACGGCUGAGCCUUCAGAGUACGUCCUGCCUGGCACUUACUGGUCCUUACCAGAGACGCCCAGCCCCAUCCCUGUCCUCAUGACCC | 0.19 |
| UUUUCCUGGAUAAUUUGAUGGAAUAUUUUAAGUUUCAGUAAAUCAGAACAAUAAACAAACUCAGAUAAAAUGUGUUGAAAGUAAUUCAUUCUCCCAUAGAUAAAUGAAAC | 0.431 |
| GAAUAUGUGAAUAACUUGACUUGCGUUGAUCUUUUUACAUAUUUAAUAAAAAAACUAUACGUUAAAAUCUGUCUGGACUUAUUCUUACGUUCUUAUCUGAGCAGUUAUCU | 0.299 |
| GUGGUGUUAAGACUGUAAUCCCAGCACUCAGGAAGCUGAGACAGGAGAAUUGCCGGGAGUACAAAGUCAACCGGAGCUAAAUAAUAUCAGCCACCAGGACUACAUAACGA | 0.448 |
| AGAAUUUAUUUUAUAAAUACUUUGUUUACAUUUUAGAUUGUACUUGUCUUUAUUUAAAAUGAUGAAUCUAGUCUGAAUCAGCUGUUAUUCCAAGCUAUCAUGCUUAAGCU | 0.778 |
| UCCCCACGCACUUCCCAGGCCAGAAUCCAAACAUCGGGAACCCUGUUUUCUUCUGGGUGUGUCUCACUUAGAAAUCGUGGUUCUUCCCCGAGGGUGCAUGUUGCAGGAGG | 1.01 |
| ACUGAAUCUUCUCUCAGAGGGAGAUGAGCAAUUGUCAGUCAGGAUAAUUCUGUUUGCUAAAUGUUGCCUUUAUGCUUUCAAACUGAAUUAAACCCAUUGUGAGGUUGACA | 0.601 |
| CAUUGGGUUGUGGUUUGAACAUCGAGGGUGUGAAGAAAAUGAAGCAGUGGCUAAAGAAAUCUUCUCCUCUCACAAAAUACAACACUAGUGUCUUUCUUUUCUCUUUCUAG | 0.39 |
| UCCUUUCUUUAAACUAUAGGUAAUUAAGGCAGCUGAAAAGUAAAUUGCCUUCUAGACACUGAAGGCAAAUCUCCUUUGUCCAUUUACCUGGAAACCAGAAUGAUUUUGAC | 0.405 |
| CUGAAAUUUUGAAAAGUUUUGAAAAAAGACUGCUAGACUUAGAGAGAGAAGCCAGAACAAAUUCCGCUGGUUAUAUUUUCUACCUUGUAAACAGGUCAGCACCCCCACUA | 0.694 |
| UUUUUUACAGUGACAACAGACAGUCCCUCGGUUUCAUGUCUUUUCGUAACCCUUUCAAUUGAACUGCCUGGAUUUUAUAUAAAGUUACUAAACGAUACCUUGUUCUUGGA | 0.536 |

Repeated from above (block 2):
| Sequence | E-score |
| --- | --- |
| CGCCTAGA | -0.0859 |
| CTGAGAGC | -0.212 |
| GGAGTGCA | -0.128 |
| ACTGAGTG | -0.0575 |
| GCGAGTTA | -0.00359 |
| CGCAAAGC | -0.0961 |
| CATACTAC | 0.139 |
| CGAGATGA | -0.108 |
| AGATTACA | 0.178 |
| CTCTAAGC | 0.0735 |
| GTATGCAC | -0.011 |
